Assay results from different studies.
Parts stem from different laboratories: compare values within a part only. Changes are numbered by the printed parent chain.

Study 1
Target: PABPC1L2, full length, GST fusion (mouse, UniProt A0ABA7IW68)
Method: RNAcompete
Molecule type: RNA
Sample: in vitro
Tested at: 20 nM
Setting: 7-mer, probes averaged, single round
Relative to: mean of 7-mers
Direction: higher = stronger binding
Measurement: 7-mer Z-score
Construct (chain): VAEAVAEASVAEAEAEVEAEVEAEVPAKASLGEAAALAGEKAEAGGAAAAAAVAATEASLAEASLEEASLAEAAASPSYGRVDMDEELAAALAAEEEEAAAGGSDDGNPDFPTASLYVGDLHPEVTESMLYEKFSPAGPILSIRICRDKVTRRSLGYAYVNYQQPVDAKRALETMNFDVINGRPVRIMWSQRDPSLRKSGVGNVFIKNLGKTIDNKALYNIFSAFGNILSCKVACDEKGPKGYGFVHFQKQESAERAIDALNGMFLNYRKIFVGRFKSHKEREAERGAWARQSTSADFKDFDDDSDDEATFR
CUUAAGA: -0.2
GUGAUUA: -0.0645
CAGCUAU: -0.137
CCUACGC: -0.36
GCCGCAC: -0.253
AUCGUCG: -0.356
AGUUGCG: -0.0989
AAUGACU: 0.0841
AUUGUGA: -0.119
ACCAGAU: -0.108
GUGCGCU: -0.0409
ACAGCCU: -0.175
CAACGAG: -0.0518

Study 2
Target: Ras GTPase-activating protein-binding protein 1, full length (G3BP1, Homo sapiens, UniProt Q13283)
Sequence of UniProt Q13283 (whole entry, looked up): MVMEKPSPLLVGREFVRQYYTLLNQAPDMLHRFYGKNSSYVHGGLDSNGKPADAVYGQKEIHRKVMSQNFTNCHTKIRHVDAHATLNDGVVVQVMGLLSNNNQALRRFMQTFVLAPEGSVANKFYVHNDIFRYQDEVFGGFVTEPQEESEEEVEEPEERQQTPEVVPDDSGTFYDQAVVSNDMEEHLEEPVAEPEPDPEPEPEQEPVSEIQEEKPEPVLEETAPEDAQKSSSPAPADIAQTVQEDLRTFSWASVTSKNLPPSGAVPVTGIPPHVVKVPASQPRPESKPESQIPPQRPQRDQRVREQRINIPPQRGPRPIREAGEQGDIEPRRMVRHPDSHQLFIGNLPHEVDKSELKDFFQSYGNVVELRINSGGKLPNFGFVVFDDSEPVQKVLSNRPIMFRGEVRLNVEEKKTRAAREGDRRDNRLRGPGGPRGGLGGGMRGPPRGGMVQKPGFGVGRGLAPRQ
Method: RNA Bind-n-Seq
Molecule type: RNA
Sample: in vitro
Tested at: 200 nM
Setting: whole 134-nt RNA, ends assumed
Together with: 150 mM KCl
Relative to: input library
Direction: higher = stronger binding
Measurement: log2 enrichment
All sequences stand within: GGGAGUUCUACAGUCCGACGAUC … UGGAAUUCUCGGGUGUCAAGG
GUCCUGUGCUACACAUCGUAUGUACCGAAUCGGGUUUGGGUUUUUUUGGGAAAAAGGGAAAGUAUUAUGUUACGCCGUUCGGAUCUGCAC: -0.253
CCUGUGCUACACAUCGUAUGUACCGAAUCGGGGUGGGGUUUUUUUGGGGUUUUUUUGGGGAAAGUAUUAUGUUACGCCGUUCGGAUCUGC: 0.159
AGUCCUGUGCUACACAUCGUAUGUACCGAAUCGGGUUUUUUUGGGUGGGUUUUUGGGAAAGUAUUAUGUUACGCCGUUCGGAUCUGCACU: -0.0105
UCAAGUCCUGUGCUACACAUCGUAUGUACCGAAUCGGAAAGGUGGUUUUUUUGGAAAGUAUUAUGUUACGCCGUUCGGAUCUGCACUUCC: -1.14
AGUCCUGUGCUACACAUCGUAUGUACCGAAUCGGGGAAAAGGAAAAGGGGAAAAGGGGAAAGUAUUAUGUUACGCCGUUCGGAUCUGCAC: -0.00826
ACCAUGCAGGUGGGCAGCUUUGGGAAGUGGGGCAAGGGGGGGAUAGGGAGGGGGGUAACACUUUGGGAACAGGUGGUCCCAGGUCGUUUC: 1.43
AUUAAUUUGUACACAGACAGGGAAACUGGCAAGCUGAAGGGAGAGGCAACGGUCUCUUUUGAUGACCCACCUUCAGCUAAAGCAGCUAUU: -0.92
UGGCCCUGGUGGCAUGCGGGAAGGAAGAGGUGGCCUCAUGGAUCGUGGUGGUCCCGGUGGAAUGUUCAGAGGUGGCCGUGGUGGAGACAG: 0.7
UGGCCCUGGUGGCAUCCGGGGAGGAAGAGGUGGCCUCAUGGAUCGUGGUGGUCCCGGUGGAAUGUUCAGAGGUGGCCGUGGUGGAGACAG: 0.595

Study 3
Target: ABI1, truncated, D143A, DHFR fusion (Arabidopsis thaliana)
Method: DHFR PCA, deep sequencing
Sample: yeast
Setting: methotrexate growth selection, single substitutions
Together with: (+)-ABA 0.032 µM
Relative to: wild-type fitted maximum
Direction: higher = stronger binding
Measurement: relative binding score
Parent: PYL1, truncated, DHFR fusion (Arabidopsis thaliana); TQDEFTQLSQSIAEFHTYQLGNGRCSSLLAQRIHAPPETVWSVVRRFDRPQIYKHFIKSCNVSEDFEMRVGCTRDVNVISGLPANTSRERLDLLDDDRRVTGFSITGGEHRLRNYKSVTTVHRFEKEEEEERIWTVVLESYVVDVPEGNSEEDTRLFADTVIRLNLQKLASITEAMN
D97Y: 9.84%
L20A: 38.5%
R155I: 4.03%
N61Y: 32.1%
K116H: 8.9%
L138F: 13.4%
F47G: -0.473%
E4M: 22.2%
T160C: 10.7%
D75G: -3.85%
S104F: -0.778%
S42Y: 4.71%
V121Y: -3.05%
S150Y: -8.17%

Study 4
Target: POU, POU domain (Salpingoeca helianthica)
Method: Spec-seq
Molecule type: double-stranded DNA, one strand shown
Sample: in vitro
Tested at: not given
Setting: whole probe, mean of replicates
Relative to: not given
Direction: lower = stronger binding
Measurement: relative binding energy
All sequences stand within: GAGTCGTCTCGTCAGCAC … CCGTAGAGCACTCAGGTC
Target sequence (chain): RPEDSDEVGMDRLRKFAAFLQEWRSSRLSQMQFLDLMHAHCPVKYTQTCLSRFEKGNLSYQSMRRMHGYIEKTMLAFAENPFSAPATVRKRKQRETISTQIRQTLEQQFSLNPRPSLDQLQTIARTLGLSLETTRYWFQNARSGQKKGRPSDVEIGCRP
ATACCCAT: 1.29 ln ratio
ATCGTGAT: 0.891 ln ratio
ATAGTAAT: 0.511 ln ratio
ATAGATAT: 0.703 ln ratio
CAAATAAT: 0.0512 ln ratio
AGTTTAAT: -0.0993 ln ratio
ATGCCCGG: 1.32 ln ratio
ATGCGACA: 1.22 ln ratio
ATGCACGG: 1.23 ln ratio
ATTTATAT: -0.249 ln ratio
ATTGATAT: 0.677 ln ratio
ATGCTTAG: 1.35 ln ratio
AATCTAAT: 0.355 ln ratio
ATGCTTTG: 1 ln ratio

Study 5
Target: CCND3, cyclin fold, Cln2 fusion (human)
Method: yeast growth competition, sequencing
Sample: yeast
Setting: weak parent motif
Relative to: not given
Direction: higher = stronger binding
Measurement: normalised enrichment score
Parent: RB1 docking peptide (human); PKPLKKLRFDIEG; partner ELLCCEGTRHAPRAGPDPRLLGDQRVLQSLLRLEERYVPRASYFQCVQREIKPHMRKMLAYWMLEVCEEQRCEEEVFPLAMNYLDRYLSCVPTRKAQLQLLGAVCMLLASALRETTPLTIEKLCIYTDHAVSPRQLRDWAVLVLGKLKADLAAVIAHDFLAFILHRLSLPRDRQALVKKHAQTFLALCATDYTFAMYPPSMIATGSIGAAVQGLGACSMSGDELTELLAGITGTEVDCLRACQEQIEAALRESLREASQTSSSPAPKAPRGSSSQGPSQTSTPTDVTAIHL
P1N: 0.0633
D10Q: 0.0314
I11W: 0.0525
E12M: 0.115
K2D: 0.081
D10E: -0.0302
K5Q: 0.107
P1L: 0.0374
G13T: 0.0392
F9V: 0.143
G13A: 0.206
K5A L7A: 0.0626
K6R: 0.111
D10H: 0.203
P1T: 0.079
R8F: 0.0193
F9Y: 0.0725

Other studies, line by line
PhoQ, residues 284 288 289 292 302 303 TLASMF  fold induction (PhoP, residues 12 14 15 18 19 QWHVF (Escherichia coli, UniProt P23836); Sort-seq, measured: YFP reporter; E. coli; PhoQ-PhoP variant library, together with: 10 µM Mg2+; relative to: high Mg2+ state, higher = stronger signaling): 9.82

Some of these lines once more (study 4):
ATTGATAT: 0.677 ln ratio
AGTTTAAT: -0.0993 ln ratio
ATTTATAT: -0.249 ln ratio
ATACCCAT: 1.29 ln ratio
ATGCCCGG: 1.32 ln ratio
ATAGATAT: 0.703 ln ratio
AATCTAAT: 0.355 ln ratio
ATGCACGG: 1.23 ln ratio
ATGCTTTG: 1 ln ratio
ATAGTAAT: 0.511 ln ratio
ATCGTGAT: 0.891 ln ratio
